Measured values gathered from unrelated publications.
Every numbered part comes from another study and shows a few of its results, in no order. Positions count from the first letter of the parent shown.

Block 1
Target: CCND2, cyclin fold, Cln2 fusion (human)
Technique: yeast growth competition, sequencing
Medium: yeast
Notes: weak parent motif
Baseline: not given
Direction: higher = stronger binding
Endpoint: normalised enrichment score
Parent: RBL2 docking peptide (human); STTRRRLFVENDS; partner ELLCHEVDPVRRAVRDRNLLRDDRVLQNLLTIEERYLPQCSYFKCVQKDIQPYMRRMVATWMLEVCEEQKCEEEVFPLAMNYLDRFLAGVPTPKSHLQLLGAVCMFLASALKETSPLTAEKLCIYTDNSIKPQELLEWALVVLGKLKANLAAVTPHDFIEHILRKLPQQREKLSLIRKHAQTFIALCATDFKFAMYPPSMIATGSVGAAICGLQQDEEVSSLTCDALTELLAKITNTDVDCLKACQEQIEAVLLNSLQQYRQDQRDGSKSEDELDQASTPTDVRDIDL
STTRRRLFVENWS [D12W]: 0.181
STTRRRLFVEQDS [N11Q]: 0.124
WTTRRRLFVENDS [S1W]: -0.185
STTRRRLFVEIDS [N11I]: 0.0149
SDTRRRLFVENDS [T2D]: -0.123
STDRRRLFVENDS [T3D]: 0.358
STTRRHLFVENDS [R6H]: -0.0436
STTRRRHFVENDS [L7H]: 0.0771
STVRRRLFVENDS [T3V]: 0.368
SYTRRRLFVENDS [T2Y]: 0.221
STTRRREFVENDS [L7E]: 0.598
STTRRRLLVENDS [F8L]: 0.146
STTRRRLGVENDS [F8G]: 0.0929
STTRRRLFVENDM [S13M]: 0.285
STTRRRLFVENDT [S13T]: 0.131
STTRRRLFVENDV [S13V]: -0.104
STTRRKLFVENDS [R6K]: 0.11
STTRDRLFVENDS [R5D]: -0.0684
STTGRRLFVENDS [R4G]: -0.123
STTRRRLFVEVDS [N11V]: 0.202
STTRRRLFVDNDS [E10D]: 0.61
SETRRRLFVENDS [T2E]: 0.547
STTRNRLFVENDS [R5N]: 0.268
STTRRRLSVENDS [F8S]: 0.198
STPRRRLFVENDS [T3P]: 0.0509

Block 2
Target: Ras GTPase-activating protein-binding protein 1, full length (G3BP1, Homo sapiens, UniProt Q13283)
Chain of UniProt Q13283 (whole entry, looked up): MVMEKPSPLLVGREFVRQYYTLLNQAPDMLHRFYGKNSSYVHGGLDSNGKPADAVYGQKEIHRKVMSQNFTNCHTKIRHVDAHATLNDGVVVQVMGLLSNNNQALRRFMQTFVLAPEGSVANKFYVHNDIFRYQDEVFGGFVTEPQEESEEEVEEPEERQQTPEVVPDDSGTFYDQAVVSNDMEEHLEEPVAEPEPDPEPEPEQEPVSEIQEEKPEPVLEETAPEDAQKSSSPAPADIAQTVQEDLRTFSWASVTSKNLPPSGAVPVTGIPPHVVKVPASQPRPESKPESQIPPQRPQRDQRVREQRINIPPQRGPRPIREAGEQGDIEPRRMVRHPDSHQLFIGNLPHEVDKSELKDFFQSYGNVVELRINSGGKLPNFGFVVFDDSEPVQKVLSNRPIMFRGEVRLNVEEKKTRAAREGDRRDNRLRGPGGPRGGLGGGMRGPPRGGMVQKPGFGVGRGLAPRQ
Technique: RNA Bind-n-Seq
Molecule type: RNA
Medium: in vitro
Tested at: 200 nM
Notes: whole 134-nt RNA, ends assumed
Added: 150 mM LiCl
Baseline: input library
Direction: higher = stronger binding
Endpoint: log2 enrichment
All molecules: 7-deaza-guanosine replaces G
All sequences stand within: GGGAGUUCUACAGUCCGACGAUC … UGGAAUUCUCGGGUGUCAAGG
UGGCCCUGGUGGCAUGCGGGGAGGAAGAGGUGGCCUCAUGGAUCGUGGUGGUGCCGGUGGAAUGUUCAGAGGUGGCCGUGGUGGAGACAG: 0.176
CUCAAGUCCUGUGCUACACAUCGUAUGUACCGAAUCGGGGUGGGGUGGGGUGGGAAAGUAUUAUGUUACGCCGUUCGGAUCUGCACUUCC: -0.783
UGGCCCUGGUGGCAUGCGGGGAGGAAGAGGUGGCCUCAUGGAUCGUGGUGGUCCCAGUGGAAUGUUCAGAGGUGGCCGUGGUGGAGACAG: 0.467
CCUCAAGUCCUGUGCUACACAUCGUAUGUACCGAAUCGGGAAGGGAAGGAAGGAAAGUAUUAUGUUACGCCGUUCGGAUCUGCACUUCCA: -0.965
GAUCUCCGGGCUCAGUUGCAGAUUCUGGCCAACAUGGACAGCCAGCUAAAAGAGCUACAGAGUCAGCAUACCCAUUGUGCCCAGGACCUG: -0.635
AAGUCCUGUGCUACACAUCGUAUGUACCGAAUCGGGAAAAGGGAAAAGGGGAAAAGGAAAGUAUUAUGUUACGCCGUUCGGAUCUGCACU: 0.378
CUCAAGUCCUGUGCUACACAUCGUAUGUACCGAAUCGGAAAAAAAGGUGGUGGAAAGUAUUAUGUUACGCCGUUCGGAUCUGCACUUCCA: -0.366
UCAAGUCCUGUGCUACACAUCGUAUGUACCGAAUCGGGUUUGGUUUGGGGUUUGGAAAGUAUUAUGUUACGCCGUUCGGAUCUGCACUUC: -1.19

Block 3
Target: RING finger protein unkempt homolog, zinc fingers 1-6, GST-SBP tag (UNK, Homo sapiens, UniProt Q9C0B0, residues 30-357)
Chain of UniProt Q9C0B0 (30-357, looked up): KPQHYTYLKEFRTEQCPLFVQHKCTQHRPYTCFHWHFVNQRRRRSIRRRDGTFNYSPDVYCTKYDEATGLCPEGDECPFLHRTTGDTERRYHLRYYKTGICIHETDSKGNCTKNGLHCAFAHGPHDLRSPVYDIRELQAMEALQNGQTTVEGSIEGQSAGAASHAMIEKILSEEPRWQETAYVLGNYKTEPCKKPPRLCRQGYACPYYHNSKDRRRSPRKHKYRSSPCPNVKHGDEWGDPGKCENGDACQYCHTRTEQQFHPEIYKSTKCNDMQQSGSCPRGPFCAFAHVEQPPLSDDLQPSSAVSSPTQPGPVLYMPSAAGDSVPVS
Technique: RNA Bind-n-Seq
Molecule type: RNA
Medium: in vitro
Tested at: not given
Notes: RNA with constant flanks, human-mouse chimeric sites, ends assumed
Baseline: input RNA pool
Direction: higher = stronger binding
Endpoint: bound/input enrichment
All sequences stand within: GGGAGUUCUACAGUCCGACGAUC … CAACAGAGGAUUGAGCAUCA
GUGUCCUGCUUUCAACUAUCACUGAGGAGGCAUCUCUACUGUUCUGUGAGCAUCAGGACUGUAGCGCUGUGUCACCACAGAUGAGAACAGAAGCAGCCUUUCUGUGGAGGGUGGGAAUGA: 0.127 ratio
UUGCCUGAGAACGAGGAUGAGCUGGAGAGCACCAACAGGCGCUACACCAAGAGGGACUGUAGCACUUUCCUCAGAACUAGUGAGACGGGCAUCGUGGACCAGGUCAUGGUCACUCUCAAC: 0.269 ratio
UCUUAACUUAUUCAUUUCUUAUUUUUAUAUAGCUAGAUAAAUAUUGUUAGUCUUAGACAAUAGCUCACAUUUUUUGAGAAGCAUGCCCUCCCUGUCCAUUUGUCUUAUAACAUGACCCAG: 104 ratio
CUGGCACUCUAUCAGAUAUAUUAAUUUUUUAAUGUAGAUGUAAUUUUAAAAAUGAAUGGCUACUUUACGUGAUAGAUUAGGGUUUUACUAUAUAUGUGUACAUAUGUAUAUAUAUAUAUA: 4.74 ratio
GUACUGCAGCAGCAGGGAAAACUGCAGGAAGCUCUGAUGCAUUAUAAGGAGGCUAUUCGAAUUAGUCCUACCUUUGCUGAUGCCUACUCUAAUAUGGGAAACACUCUAAAGGAGAUGCAG: 0.181 ratio
UAAAUUAGGGCUGCCGUUUUCUGUUUCUCCCUGGGCUGCAGACAGCUAGAAGAUUUUAUCUAGUUUGUACAAGGCUGCUGGUGUUCCCUCUUUUUUUCCACGAGGGUGUUUUUGGCUGCA: 0.679 ratio
GUAUACGGUUAUCGAGGAAAGGACUGUAGAGCGAAUGUUUACCUUCUUCCCACAGGGGAGAUAGUUUAUUUUAUCGCAUCAGUAGUAGUCCUGUUUAAUUAUGAGGAGAGGACUCAGCGA: 1.54 ratio
ACAGUUAUAUUGUUGAGUUUCAUUUUCAUAUAUUCUUGUAGUGUCUGCUUGCCUGUGACUUCUGGUAAAAUAAAAUAAGCCUUUGAAUUAGCAUGCUCAUGGUAUUUAACAUUUUCUAAA: 0.848 ratio

Block 4
Target: Sal-like protein 4, full length isoform B (SALL4, Homo sapiens, UniProt Q9UJQ4-2, residues 1-616)
Technique: universal PBM
Molecule type: double-stranded DNA, one strand shown
Medium: in vitro
Tested at: not given
Notes: 8-mer, flanks averaged, mean of replicates
Direction: higher = stronger binding
Endpoint: E-score
ACCACAGA: 0.00133
AGAATCGC: -0.0204
CTTTAACA: 0.261
GGCGGGTA: -0.178
AGTAGTAC: 0.106
GAGTATCC: -0.183
CGGTGCCA: -0.354
GCTCGATA: -0.0527
AACTACAT: 0.161
GCTATCAC: -0.0339
CGCTTAAC: 0.0175
ACCCCTTC: -0.144
ATCGACAA: 0.121
ATTCACCC: -0.0522
GATCATTA: 0.196
AGAGAGGC: -0.101
ATGTTATC: 0.102
TCTCAAGA: -0.0339

Block 5
Target: CREB3L3, bZIP domain (human)
Technique: DHFR protein complementation
Medium: yeast
Notes: single substitutions, most at no-binding floor
Baseline: wild-type JUN-FOS pair
Direction: higher = stronger binding
Endpoint: binding fitness
Parent: JUN, bZIP domain (human); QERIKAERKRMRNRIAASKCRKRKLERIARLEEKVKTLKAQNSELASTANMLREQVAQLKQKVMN; partner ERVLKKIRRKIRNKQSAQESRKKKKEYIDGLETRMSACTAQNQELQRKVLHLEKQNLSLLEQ
A46H: -1.56 natural log
Q41P: -1.48 natural log
Q55A: -1.57 natural log
R30C: -1.42 natural log
L31W: -1.54 natural log
E54M: -1.45 natural log
L45V: -1.51 natural log
Q55P: -1.46 natural log
M51P: -1.5 natural log
A29V: -1.5 natural log

Single results of other studies
PhoQ, residues 284 288 289 292 302 303 SLANIV  fold induction (PhoP, residues 12 14 15 18 19 YHFSH (Escherichia coli, UniProt P23836); Sort-seq, measured: YFP reporter; E. coli; PhoQ-PhoP variant library, added: 10 µM Mg2+; baseline: high Mg2+ state, higher = stronger signaling): 12.8
